Published values gathered from unrelated publications.
Several values in a cell are separate wells, animals, samples, runs or records. Numbers after ± are the reported error. Converted amounts (≈) assume the structure as drawn.

Structure (SMILES)	tested on	test	test system	conditions	scale	measurement	result
COC1OC(C)C(OS(=O)(=O)O)C(OC2OC(C)C(OS(=O)(=O)O)C(OC3OC(C)C(OS(=O)(=O)O)C(OC4OC(C)C(OS(=O)(=O)O)C(OC5OC(C)C(OS(=O)(=O)O)C(OC6OC(C)C(OS(=O)(=O)O)C(OC7OC(C)C(OS(=O)(=O)O)C(OC8OC(C)C(OS(=O)(=O)O)C(OC9OC(C)C(OS(=O)(=O)O)C(OC%10OC(C)C(OS(=O)(=O)O)C(OC%11OC(C)C(OS(=O)(=O)O)C(OS(=O)(=O)O)C%11O)C%10O)C9O)C8O)C7O)C6O)C5O)C4O)C3O)C2O)C1O (stereo not shown)	–	–	human plasma	128 µg/mL	–	thrombin time	10.1 ± 0.8 s
CNS(=O)(=O)Nc1nccc(Cc2c(C)c3ccc(Oc4ncccc4F)cc3oc2=O)c1F	BDCM	cell viability, CellTiter-Glo	–	7 days	–	IC50	0.0897 µM
Nc1ncc(-c2cc(-c3cnn(CC(F)(F)F)c3)ncc2F)nc1C(=O)NC1CNCC(F)C1 (stereo not shown)	ACVRL1	KINOMEscan	–	1 µM	relative to: DMSO control	remaining binding	76%
CN1CCCNC(=O)c2cccc(c2)C(=O)NCCCN(C)CCCNc2cccc3c2C(=O)c2cccc(c2C3=O)NCCC1	SAS	RNA-Seq, item: RELCH mRNA	–	1 µM, 6 h	relative to: untreated cells	log2 fold change	-1.55
Cc1cccc2c1N(C(=O)n1ccnn1)CC2	Arabidopsis thaliana	–	wild type	100 µM, seedlings	–	hypocotyl length	5.69 mm
COc1cc2c(NC3CCN(C(C)C)CC3)cc(N3CCOCC3)nc2cc1OCCCN1CCCC1	–	TMT quantitative proteomics, item: phosphoglycerate mutase 1	5xFAD mice, hippocampus	dose not given	–	normalised protein abundance	-0.0036 and 0.0105 and -0.0434 and 0.00402 and -0.0625 and -0.0253 and -0.111 and -0.0515
COC1OC(C)C(OC2OC(C)C(OS(=O)(=O)O)C(OS(=O)(=O)O)C2OS(=O)(=O)O)C(OS(=O)(=O)O)C1OS(=O)(=O)O (stereo not shown)	–	–	human plasma	128 µg/mL	–	thrombin time	10.5 ± 0.6 s
Cc1ncsc1-c1ccc(C(C)NC(=O)C2CC(O)CN2C(=O)C(NC(=O)CCCCCCCCCCN2CCCC(Nc3ncc(Cl)c(Nc4ccccc4S(=O)(=O)C(C)C)n3)C2)C(C)(C)C)cc1 (stereo not shown)	22Rv1	RNA-seq, item: WBP1L mRNA	–	concentration not given	relative to: DMSO	log2 fold change	-1.34
COC1OC(C)C(OC2OC(C)C(O)C(OC3OC(C)C(OC4OC(C)C(O)C(OC5OC(C)C(O)C(OS(=O)(=O)O)C5OS(=O)(=O)O)C4OS(=O)(=O)O)C(OS(=O)(=O)O)C3OS(=O)(=O)O)C2OS(=O)(=O)O)C(OS(=O)(=O)O)C1OS(=O)(=O)O (stereo not shown)	–	–	human plasma	128 µg/mL	–	thrombin time	9.6 ± 0.1 s
C=CC(=O)N1[C@@H](c2ccc3c(c2)OCO3)c2[nH]c3ccccc3c2C[C@H]1C(=O)N1CCN(C)CC1	human cyclin E1 wild type-3xFLAG:CDK2	co-IP with TMT proteomics, item: PUF60	–	concentration not given, Q9UHX1	relative to: wild type DMSO	relative co-enrichment	96%
C=CC(=O)Nc1cccc(Cn2ncc3cnc(Nc4cnn(CCOC)c4)nc32)c1	MAP4K3 human	binding, KINOMEscan	–	100 nM	lower = stronger binding	percent of control	100%
C=C(NC(=O)c1csc(-c2nc3c(cc2O)-c2nc(cs2)C(=O)NC(C(C)O)C(=O)NC(=C(C)OC)c2nc(cs2)C(=O)NC2c4nc(cs4)C(=O)NC(COC(=O)c4c5c6c(cccc6n4O)COC(=O)C(OC4CC(C)(O)C(N(C)C)C(C)O4)C2OC5)c2nc-3cs2)n1)C(N)=O (stereo not shown)	Enterococcus faecium	agar dilution	vancomycin-intermediate, 25 isolates	–	–	MIC50	0.0156 mg/L (≈ 0.0109 µM)
COc1cc(O)ccc1CCC(c1ccc(O)cc1)c1cc2c(c(C)c1O)OC(c1ccc(O)cc1)CC2 (mixture of isomers)	–	–	human blood	3 µM, with: A23187	–	PGE2 level	29 ± 8 pg/mL
COc1ccccc1-c1ccncc1C(=O)Nc1nnc(OCc2ccc(Cl)cc2)s1	DLD-1 parental	–	–	0.5 µM, single replicate	–	colony count	77 and 79 and 81 and 67 and 82 and 70
Fc1ccc(Nc2nc(NC3CCCCC3)c3cc(Br)ccc3n2)cc1F	β2AR/β1AR TM7 chimera	β-arrestin2 recruitment, antagonist, BRET	–	with: isoprenaline 1 µM	–	pIC50	6.4
c1ccc(-c2n[nH]cc2-c2ccnc3ccccc23)nc1	VPS15 (Candida albicans)	kinase binding, MIB/MS competition	Candida albicans lysate	1 µM	relative to: DMSO	log2 fold change	0.03
COC1OC(C)C(OC2OC(C)C(OS(=O)(=O)O)C(OC3OC(C)C(OC4OC(C)C(OS(=O)(=O)O)C(OS(=O)(=O)O)C4OS(=O)(=O)O)C(OS(=O)(=O)O)C3OS(=O)(=O)O)C2OS(=O)(=O)O)C(OS(=O)(=O)O)C1OS(=O)(=O)O (stereo not shown)	–	–	human plasma	128 µg/mL	relative to: control	thrombin time prolongation	1 fold
COC1CN([C@H]2CC[C@H]([C@@]3(C)Oc4c(Cl)cc(C(=O)NCc5c(SC)cc(C)[nH]c5=O)c(C)c4O3)CC2)C1	–	RNA-seq, item: SCARF1	human, whole blood	dose not given, 24 h	relative to: pretreatment baseline	log2 fold change	1.37
COC1OC(C)C(O)C(OC2OC(C)C(O)C(OC3OC(C)C(O)C(OC4OC(C)C(O)C(OC5OC(C)C(O)C(OC6OC(C)C(O)C(OC7OC(C)C(O)C(OS(=O)(=O)O)C7OS(=O)(=O)O)C6OS(=O)(=O)O)C5OS(=O)(=O)O)C4OS(=O)(=O)O)C3OS(=O)(=O)O)C2OS(=O)(=O)O)C1OS(=O)(=O)O (stereo not shown)	–	–	human plasma	128 µg/mL	–	thrombin time	11 ± 0.3 s
CCN(CC)CC(=O)Nc1cccc(-n2cc(-c3ccc4ccc(-c5cn(-c6cccc(NC(=O)CN(CC)CC)c6)nn5)cc4c3)nn2)c1	RCC4	PCR angiogenesis array, item: PTGS1	–	5 x IC50, 4 h, normoxia	relative to: untreated	fold regulation	-1.71
CC(C)c1ccc(N(C)c2ccc3c(c2)OCC[C@H]3CNc2cnccc2C(=O)O)cc1	KYSE-150	cell growth or viability, ATP luminescence	–	7 days	–	IC50	0.0051 µM
COC1OC(C)C(OC2OC(C)C(O)C(OC3OC(C)C(OC4OC(C)C(O)C(OS(=O)(=O)O)C4OS(=O)(=O)O)C(OS(=O)(=O)O)C3OS(=O)(=O)O)C2OS(=O)(=O)O)C(OS(=O)(=O)O)C1OS(=O)(=O)O (stereo not shown)	–	–	human plasma	128 µg/mL	–	thrombin time	9.6 ± 0.5 s

Some of these lines once more:
Structure (SMILES)	tested on	test	test system	conditions	scale	measurement	result
C=CC(=O)Nc1cccc(Cn2ncc3cnc(Nc4cnn(CCOC)c4)nc32)c1	MAP4K3 human	binding, KINOMEscan	–	100 nM	lower = stronger binding	percent of control	100%
C=C(NC(=O)c1csc(-c2nc3c(cc2O)-c2nc(cs2)C(=O)NC(C(C)O)C(=O)NC(=C(C)OC)c2nc(cs2)C(=O)NC2c4nc(cs4)C(=O)NC(COC(=O)c4c5c6c(cccc6n4O)COC(=O)C(OC4CC(C)(O)C(N(C)C)C(C)O4)C2OC5)c2nc-3cs2)n1)C(N)=O (stereo not shown)	Enterococcus faecium	agar dilution	vancomycin-intermediate, 25 isolates	–	–	MIC50	0.0156 mg/L (≈ 0.0109 µM)
COc1cc(O)ccc1CCC(c1ccc(O)cc1)c1cc2c(c(C)c1O)OC(c1ccc(O)cc1)CC2 (mixture of isomers)	–	–	human blood	3 µM, with: A23187	–	PGE2 level	29 ± 8 pg/mL
